Measurements pooled from the literature.
Each numbered part is a random draw from the data of one study; scales do not carry over between parts.

Block 1
Target: Prothrombin, mature alpha-thrombin (F2, Homo sapiens, UniProt P00734)
Method: aptamer microarray, sandwich
Form: DNA with 2'F-ANA
Medium: in vitro
Tested at: 200 nM
Setting: whole 15-mer aptamer, many near background
Together with: Cy3 exosite-II aptamer, 400 nM
Reading: higher = stronger binding
Strand: GGTTGGTGTGGTTGG
Modification | mean fluorescence intensity [a.u.]
2'F-ANA at 2 4 5 9 12 13 14 15 | 47.3
2'F-ANA at 1 2 4 5 7 8 10 12 13 15 | 53.2
2'F-ANA at 1 2 5 7 8 9 13 14 | 47.4
2'F-ANA at 3 4 5 7 10 12 13 | 52.2
2'F-ANA at 3 4 7 8 9 10 11 12 13 14 15 | 203
2'F-ANA at 2 3 4 6 7 10 11 14 | 144
2'F-ANA at 2 4 7 9 12 13 14 | 111

Block 2
Target: Interferon regulatory factor 3, full length, phosphomimetic (IRF3, Homo sapiens, UniProt Q14653, residues 1-427, S386D/S396D/S398D/S402D/T404D/S405D)
Method: protein-binding microarray
Form: double-stranded DNA, one strand shown
Medium: in vitro
Tested at: 2540 nM top
Setting: 60-bp whole probe
Together with: salmon DNA 0.4 mg/ml
Relative to: random background probes
Reading: higher = stronger binding
All sequences stand within: GCCTAGCAC … GTCTTGATTCGCTTGACGCTGCTG
Target sequence (chain): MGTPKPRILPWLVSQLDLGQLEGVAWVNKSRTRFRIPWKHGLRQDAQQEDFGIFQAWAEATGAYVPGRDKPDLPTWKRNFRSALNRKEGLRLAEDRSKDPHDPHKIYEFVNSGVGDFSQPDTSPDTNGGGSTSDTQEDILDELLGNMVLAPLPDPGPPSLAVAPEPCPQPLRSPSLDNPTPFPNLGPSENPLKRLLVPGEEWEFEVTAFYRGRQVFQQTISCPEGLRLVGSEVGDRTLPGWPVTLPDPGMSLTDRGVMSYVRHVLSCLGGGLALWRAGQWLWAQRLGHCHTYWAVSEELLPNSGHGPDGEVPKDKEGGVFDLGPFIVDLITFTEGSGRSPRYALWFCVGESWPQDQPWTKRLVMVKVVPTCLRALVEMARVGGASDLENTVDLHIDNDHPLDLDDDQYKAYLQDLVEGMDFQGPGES
Strand | fitted relative affinity
TTAGGTTTCGACACTGAGTTAGTGCTA | 2.55 z-score
GACGGACTGGGGTTTCGGGCCGTGCTA | -0.339 z-score
GACGATTTTGGGACTGGAGACGTGCTA | 0.172 z-score
AAACTCGTGTTTTTCTCCTAGTGCTAG | 0.573 z-score
TGAGATTTCGGGTTTCGATTAGTGCTA | 3.26 z-score

Block 3
Target: Centromere-binding protein 1, full length, N-terminal tag (CBF1, Saccharomyces cerevisiae, UniProt P17106, residues 1-351)
Chain of UniProt P17106 (whole entry, looked up): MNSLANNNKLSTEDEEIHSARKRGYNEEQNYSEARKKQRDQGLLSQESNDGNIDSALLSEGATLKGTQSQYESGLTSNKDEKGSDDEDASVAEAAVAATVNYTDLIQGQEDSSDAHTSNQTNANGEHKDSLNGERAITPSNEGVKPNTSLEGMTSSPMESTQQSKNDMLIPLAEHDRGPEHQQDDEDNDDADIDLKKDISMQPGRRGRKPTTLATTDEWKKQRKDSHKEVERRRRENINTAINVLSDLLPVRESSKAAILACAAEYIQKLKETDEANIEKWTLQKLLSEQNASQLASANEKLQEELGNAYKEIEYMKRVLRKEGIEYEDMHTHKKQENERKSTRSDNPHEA
Method: protein-binding microarray
Form: double-stranded DNA, one strand shown
Medium: in vitro
Tested at: 0.8 µM
Setting: whole 60-bp probe, no competitor
Reading: higher = stronger binding
Strand | fluorescence intensity [a.u.]
CTAAAAAAAAAGTGCGACATCACAATGAGACATTTCGTCTTGATTCGCTTGACGCTGCTG | 506
CTAACATCAGCCCATCACCCATTTATTTGTTCTTTCGTCTTGATTCGCTTGACGCTGCTG | 508
CTAAAACGAAGAAAGCACGTGAGGATTGAAGAATTCGTCTTGATTCGCTTGACGCTGCTG | 5040
CTACAATTTTAAGAATACGTGATAGATGCTTCGTTCGTCTTGATTCGCTTGACGCTGCTG | 592

Block 4
Substance: PhoQ, residues 284 288 289 292 302 303 AEGLLW
Method: Sort-seq
Refers to: YFP reporter
Medium: E. coli
Setting: PhoQ-PhoP variant library
Together with: 10 µM Mg2+
Relative to: high Mg2+ state
Reading: higher = stronger signaling
target | fold induction
PhoP, residues 12 14 15 18 19 SHWTV (Escherichia coli, UniProt P23836) | 1.29
PhoP, residues 12 14 15 18 19 STHWV (Escherichia coli, UniProt P23836) | 5.78
PhoP, residues 12 14 15 18 19 QYCSL (Escherichia coli, UniProt P23836) | 4.73

Repeated from above (block 4):
target | fold induction
PhoP, residues 12 14 15 18 19 STHWV (Escherichia coli, UniProt P23836) | 5.78
PhoP, residues 12 14 15 18 19 SHWTV (Escherichia coli, UniProt P23836) | 1.29
